Measurements pooled from the literature.
Values joined by “and” are separate records of one study, mostly repeats; a detail may differ. Numbers after ± are the reported error.

Structure (SMILES)	assay	system	conditions	how to read	quantity	value
Cc1ccc(CN2C(=O)/C(=N\c3ccc(Cl)cc3Br)c3ccccc32)cc1	flow cytometry	mouse tumour model, tumour tissue	ip, 20 mg/kg		M2 macrophages in TAMs	14.2%
COc1ccc2c(c1)c(CC(=O)OCC(=O)OC(C)(C)C)c(C)n2C(=O)c1ccc(Cl)cc1		BALB/c mice, acetic acid writhing	intraperitoneal, 30 mg/kg, 20 min count		writhing count	10 ± 1.79
COc1ccc(C2CC(c3ccc(C)cc3)=Nc3ccccc3S2)cc1 (centres unmarked)		rat, normal, overnight fasted	oral, 10 mg/kg, 30 min, oral glucose tolerance test, with: glucose 3 g/kg oral		blood glucose	120 ± 4.01 mg/dL
CCCCCCOC(=O)Cc1c(C)n(C(=O)c2ccc(Cl)cc2)c2ccc(OC)cc12	acetic acid writhing test	BALB/c mouse	intraperitoneal, 30 mg/kg	reference: negative control	analgesia	73.3%
C=C1C(=O)OC2CC3=C[C@@H](C/C(C)=C/C(OC(=O)Cc4cccc5ccccc45)[C@H]12)OC3=O (some centres unmarked)	immunohistochemistry	SCID mouse, MDA-MB-231 xenograft, lung	dose not given, 71 days after cell injection		Ki67 and VEGF expression	inhibited
CC[C@H]1[C@@H](O)[C@@H]2[C@H](CC[C@]3(C)[C@@H]([C@H](C)CCOS(=O)(=O)[O-])CC[C@@H]23)[C@@]2(C)CC[C@@H](O)C[C@@H]12.[Na+]		ob/ob NASH mouse, liver	10 mg/kg, 8 weeks	reference: baseline, direction not given	reduction of NAFLD activity score	~3 points
CCCCCCCOC(=O)Cc1c(C)n(C(=O)c2ccc(Cl)cc2)c2ccc(OC)cc12	acetic acid writhing test	BALB/c mouse	intraperitoneal, 10 mg/kg	reference: negative control	analgesia	46.2%
O=C1CCN(Cc2ccccc2)CC1C(C[N+](=O)[O-])c1ccccc1 (centres unmarked)		mouse acetic acid writhing	50 mg/kg, with: haloperidol 1 mg/kg pretreatment		analgesic activity	18%
O=[N][Fe]1([N]=O)[S](CCO)[Fe]([N]=O)([N]=O)[S]1CCO	western blot, refers to: NeuN	aged C57BL/6JNarl mice on Western diet, hippocampus	dose not given	reference: Western diet alone	protein level	increased
CC(C)OC(=O)[C@H](CO)NCc1cc(Cl)c(OCc2cccc(-c3ccccc3)c2Br)cc1OCc1cccnc1	Western blot, refers to: human PD-L1	humanized PD-1 C57BL/6 mice, hPD-L1 MC-38 tumour, tumour	dose not given		PD-L1 protein level	decreased
CC(C)(O)c1ccc(N2Cc3c(ccnc3-c3ccc(F)cc3OCC(F)(F)F)C2=O)cc1		Gaucher disease mouse model, plasma	10 mg/kg, 2 months once daily	reference: vehicle	glucosylsphingosine level	58 ± 6%
CCOP(=O)(CC(=O)Nc1ccc(S(=O)(=O)N(CC(N)=O)c2ccc(N(CC(N)=O)S(=O)(=O)c3ccc(OC)cc3)c3ccccc23)cc1)OCC	western blot, refers to: phospho-tau	APP/PS1 mice, hippocampus and frontal cortex	40 mg/kg		protein level	decreased
O=c1c(OCc2ccccc2)c(-c2cccc([N+](=O)[O-])c2)oc2ccccc12		diabetic rat	7.5 mg/kg, 28 days, p-nitrophenyl β-glucoside induced		serum LDL cholesterol	122 ± 3.31 mg/dL
COc1c2c(cc3oc(COC4OC(CO)C(O)C(O)C4O)cc(=O)c13)OC(C(C)(C)O)C2 (centres unmarked)		mouse, xylene ear edema	oral, 4 mg/kg		ear edema weight increase	4.32 ± 0.42 mg
CCOc1cncc(-c2ccc(NC(=O)C(CC)c3ccnc(NS(=O)(=O)C4CC4)n3)nc2)n1 (centres unmarked)	enzyme activity, inhibitor, RapidFire mass spectrometry	rat		reference: CTPS1 over CTPS2	selectivity ratio	1
CCCC[C@H](NC(=O)[C@@H](NC(=O)[C@H](CC(=O)O)NC(=O)[C@H](CCC(N)=O)NC(=O)[C@H](CC(C)C)NC(=O)[C@H](CC(C)C)NC(=O)[C@H](CCCN)NC(=O)[C@H](CCCNC(=N)N)NC(=O)[C@H](C)NC(=O)[C@H](CO)NC(=O)[C@H](CC(C)C)NC(=O)[C@H](CCC(N)=O)NC(=O)[C@H](CC)NC(=O)[C@H](CC(C)C)NC(=O)[C@@H](NC(=O)[C@H](CCCN)NC(=O)[C@H](CCCNC(=N)N)NC(=O)[C@H](Cc1ccc(O)cc1)NC(=O)[C@H](CO)NC(=O)[C@H](CCC(N)=O)NC(=O)[C@@H](NC(=O)[C@H](Cc1ccccc1)NC(=O)[C@@H](NC(=O)[C@H](C)NC(=O)[C@H](CC(=O)O)NC(=O)[C@@H](C)NC(=O)[C@H](Cc1ccc(O)cc1)NC)[C@@H](C)CC)[C@@H](C)O)C(C)C)[C@@H](C)CC)C(=O)N[C@@H](CC(=O)O)C(=O)NCCCCNC(=N)N	GH release, ELISA	male Sprague-Dawley rat, anaesthetised, serum	subcutaneous, 3 µg/kg, 15 min		serum GH level	276 ± 46.4 ng/mL

Structure (SMILES)	assay	system	conditions	how to read	quantity	value
O=c1c(OCc2ccccc2)c(-c2ccc([N+](=O)[O-])cc2)oc2ccccc12		diabetic rat	7.5 mg/kg, 28 days, p-nitrophenyl β-glucoside induced		serum total cholesterol	154 ± 4.85 mg/dL
Clc1ccc(C(c2c[nH]c3ccccc23)c2c[nH]c3ccccc23)cc1		mice, MPTP/probenecid Parkinson model, substantia nigra pars compacta	oral, 25 mg/kg daily, 14 days	reference: saline control	loss of TH+ neurons	35% and 35.3%
Cc1ncc([N+](=O)[O-])n1CCOCc1nnc(SCC(=O)c2ccc([N+](=O)[O-])cc2)o1			100 µg/mL, 45 min		DPPH scavenging	65.2 ± 0.15%
CCCC[C@H](NC(=O)[C@@H](NC(=O)[C@H](CC(=O)O)NC(=O)[C@H](CCC(N)=O)NC(=O)[C@H](CC(C)C)NC(=O)[C@H](CC(C)C)NC(=O)[C@H](CCCN)NC(=O)[C@H](CCCNC(=N)N)NC(=O)[C@H](C)NC(=O)[C@H](CO)NC(=O)[C@H](CC(C)C)NC(=O)[C@H](CCC(N)=O)NC(=O)[C@H](CC)NC(=O)[C@H](CC(C)C)NC(=O)[C@@H](NC(=O)[C@H](CCCN)NC(=O)[C@H](CCCNC(=N)N)NC(=O)[C@H](Cc1ccc(O)cc1)NC(=O)[C@H](CO)NC(=O)[C@H](CCC(N)=O)NC(=O)[C@@H](NC(=O)[C@H](Cc1ccccc1)NC(=O)[C@@H](NC(=O)[C@H](C)NC(=O)[C@H](CC(=O)O)NC(=O)[C@@H](C)NC(=O)CCc1ccc(O)cc1)[C@@H](C)CC)[C@@H](C)O)C(C)C)[C@@H](C)CC)C(=O)N[C@@H](CC(=O)O)C(=O)N[C@H](CCCNC(=N)N)C(=O)NC	GH release, ELISA	male Sprague-Dawley rat, anaesthetised, serum	subcutaneous, 3 µg/kg, 15 min		serum GH level	218 ± 37 ng/mL
C[C@H](NC(=O)COC(=O)[C@H](C)NC(=O)CO)C(=O)O		water	pH 2, 37 °C		depolymerization rate constant	0.002 h⁻¹
COc1ccc(-c2oc3ccccc3c(=O)c2OCc2ccccc2)cc1		diabetic rat	7.5 mg/kg, 28 days, p-nitrophenyl β-glucoside induced		serum HDL cholesterol	52.7 ± 2.08 mg/dL
COc1ccc(C(=O)CSc2nnc(COCCn3c([N+](=O)[O-])cnc3C)o2)cc1F			50 µg/mL, 45 min		DPPH scavenging	61.7 ± 0.31%
CCCC[C@H](NC(=O)[C@@H](NC(=O)[C@H](CC(=O)O)NC(=O)[C@H](CCC(N)=O)NC(=O)[C@H](CC(C)C)NC(=O)[C@H](CC(C)C)NC(=O)[C@H](CCCN)NC(=O)[C@H](CCCNC(=N)N)NC(=O)[C@H](C)NC(=O)[C@H](CO)NC(=O)[C@H](CC(C)C)NC(=O)[C@H](CCC(N)=O)NC(=O)[C@H](CC)NC(=O)[C@H](CC(C)C)NC(=O)[C@@H](NC(=O)[C@H](CCCN)NC(=O)[C@H](CCCNC(=N)N)NC(=O)[C@H](Cc1ccc(O)cc1)NC(=O)[C@H](CO)NC(=O)[C@@H](NC(=O)[C@@H](NC(=O)[C@H](Cc1ccccc1)NC(=O)[C@@H](NC(=O)[C@H](C)NC(=O)[C@H](CC(=O)O)NC(=O)[C@@H](C)NC(=O)[C@H](Cc1ccc(O)cc1)NC)[C@@H](C)CC)[C@@H](C)O)[C@@H](C)O)C(C)C)[C@@H](C)CC)C(=O)N[C@@H](CC(=O)O)C(=O)N[C@@H](CCCNC(=N)N)C(=O)NC	GH release, ELISA	male Sprague-Dawley rat, anaesthetised, serum	subcutaneous, 3 µg/kg, 30 min		serum GH level	250 ± 28.6 ng/mL
COc1cc(-c2nc3ccc(C(=O)NCCCN(C)C)cc3n2C2CCC2)cc(OC)c1OC	Faxitron	ALK2 Q207D transgenic mice	oral, 30 mg/kg twice daily, 12 days	direction not given	heterotopic ossification score	2.58 ± 0.9
CCCC[C@H](NC(=O)[C@@H](NC(=O)[C@H](CC(=O)O)NC(=O)[C@H](CCC(N)=O)NC(=O)[C@H](CC(C)C)NC(=O)[C@H](CC(C)C)NC(=O)[C@H](CCCN)NC(=O)[C@H](CCCNC(=N)N)NC(=O)[C@H](C)NC(=O)[C@H](CO)NC(=O)[C@H](CC(C)C)NC(=O)[C@H](CCC(N)=O)NC(=O)[C@H](CC)NC(=O)[C@H](CC(C)C)NC(=O)[C@@H](NC(=O)[C@H](CCCN)NC(=O)[C@H](CCCNC(=N)N)NC(=O)[C@H](Cc1ccc(O)cc1)NC(=O)[C@H](CO)NC(=O)[C@H](CCC(N)=O)NC(=O)[C@@H](NC(=O)[C@H](Cc1ccccc1)NC(=O)[C@@H](NC(=O)[C@H](C)NC(=O)[C@H](CC(=O)O)NC(=O)[C@@H](C)NC(=O)[C@H](Cc1ccc(O)cc1)NC)[C@@H](C)CC)[C@@H](C)O)C(C)C)[C@@H](C)CC)C(=O)N[C@@H](CC(=O)O)C(=O)N[C@@H](CCCNC(=N)N)C(=O)NCC	GH release, ELISA	male Sprague-Dawley rat, anaesthetised, serum	subcutaneous, 3 µg/kg, 0 min		serum GH level	35.5 ± 7.6 ng/mL
O=c1c(OCc2ccccc2)c(-c2ccc(Cl)cc2)oc2ccccc12		diabetic rat	7.5 mg/kg, 28 days, p-nitrophenyl β-glucoside induced		serum LDL cholesterol	118 ± 3.85 mg/dL
CCCC[C@H](NC(=O)[C@@H](NC(=O)[C@H](CC(=O)O)NC(=O)[C@H](CCC(N)=O)NC(=O)[C@H](CC(C)C)NC(=O)[C@H](CC(C)C)NC(=O)[C@H](CCCN)NC(=O)[C@H](CCCNC(=N)N)NC(=O)[C@H](C)NC(=O)[C@H](CO)NC(=O)[C@H](CC(C)C)NC(=O)[C@H](CCC(N)=O)NC(=O)[C@H](CC)NC(=O)[C@H](CC(C)C)NC(=O)[C@@H](NC(=O)[C@H](CCCN)NC(=O)[C@H](CCCNC(=N)N)NC(=O)[C@H](Cc1ccc(O)cc1)NC(=O)[C@H](CO)NC(=O)[C@H](CCC(N)=O)NC(=O)[C@@H](NC(=O)[C@H](Cc1ccccc1)NC(=O)[C@@H](NC(=O)[C@H](C)NC(=O)[C@H](CC(=O)O)NC(=O)[C@H](C)NC(=O)[C@H](Cc1ccc(O)cc1)NC)[C@@H](C)CC)[C@@H](C)O)C(C)C)[C@@H](C)CC)C(=O)N[C@@H](CC(=O)O)C(=O)N[C@@H](CCCNC(=N)N)C(=O)NC	GH release, ELISA	male Sprague-Dawley rat, anaesthetised, serum	subcutaneous, 3 µg/kg, 15 min		serum GH level	493 ± 21.8 ng/mL
COc1c2c(cc3oc(CO)cc(=O)c13)O[C@H](C(C)(C)O)C2	analgesia	mouse	oral, 4 mg/kg, 2 h		hot plate latency	15.5 ± 2.27 s
CCCCOc1nc(N)c2[nH]c(=O)n(CCCN(CCCN3CCOCC3)Cc3cccc(CC(=O)OC)c3)c2n1		rat, Brown Norway, ovalbumin-sensitised	single dose		duration of effect	≤ 5 days
Cc1cc2c(cc1C1(c3ncc(C(=O)O)cn3)CC1)C(C)(C)CCC2(C)C	RNA sequencing, refers to: Sycp2	rat, brain	dose not given, 24 h	reference: vehicle	log2 fold change	0.69
CCOC(=O)c1cc2c(N)c(C(=O)OC)sc2nc1C	refers to: urine output, osmolality, urea	Sprague-Dawley rats	subcutaneous, dose not given		time to return to baseline	12 h
